Published values pooled from the literature.
Numbers after ± are the reported error.

Compound	system	setting	measurement	result
c1ccc(-c2cccc(Nc3nccc(NC4CCCCC4)n3)c2)cc1	MDCKII-WT cells	10 µM, pH 7.4	Papp (A to B)	0.005 ± 0.004 ×10⁻⁶ cm/s
CCOC(=O)[C@H](CCc1ccccc1)N[C@@H](C)C(=O)N1CCC[C@H]1C(=O)O	EpiIntestinal microtissues	5 µM, 2 h, pH 6.5, basolateral pH 7.4	Papp apical to basolateral	0.86 ×10⁻⁶ cm/s
CCc1ccccc1-c1c(C)[nH]c2cc(OC)c(Cl)cc2c1=O	PAMPA	pH 7.4	Papp	443 ×10⁻⁶ cm/s
COC(=O)[C@H]1[C@H]2C[C@@H]3c4[nH]c5cc(OC)ccc5c4CCN3C[C@H]2C[C@@H](OC(=O)c2cc(OC)c(OC)c(OC)c2)[C@@H]1OC	EpiIntestinal microtissues	5 µM, 2 h, pH 6.5, basolateral pH 7.4	Papp apical to basolateral	2.6 ×10⁻⁶ cm/s
COc1cc2[nH]c(C)c(-c3ccc(C=O)cc3)c(=O)c2cc1Cl	PAMPA	pH 7.4	Papp	107 ×10⁻⁶ cm/s
COC(=O)C(Cc1cccc(C)c1I)NC(=O)CNCc1ccccc1 (stereo not shown)	bEnd.3 Transwell BBB model	10 µg/mL, 120 min, 37 °C	Papp A to B	359 ± 43.8 ×10⁻⁶ cm/s
c1ccc(-c2cccc(Nc3nccc(NC4CCCCC4)n3)c2)nc1	MDCKII-WT cells	10 µM, pH 7.4	Papp (B to A)	15.1 ± 12.1 ×10⁻⁶ cm/s
COc1ccccc1OCCNCC(O)COc1cccc2[nH]c3ccccc3c12 (stereo not shown)	EpiIntestinal microtissues	5 µM, 2 h, pH 6.5, basolateral pH 7.4	Papp apical to basolateral	2.8 ×10⁻⁶ cm/s
COC(=O)C(Cc1cccc(OC)c1I)NC(=O)CNCc1ccccc1 (stereo not shown)	bEnd.3 Transwell BBB model	10 µg/mL, 120 min, 37 °C	Papp A to B	146 ± 4.17 ×10⁻⁶ cm/s
COc1cc2[nH]c(C)c(-c3cccc4c3oc3ccccc34)c(=O)c2cc1Cl	PAMPA	pH 7.4	Papp	46 ×10⁻⁶ cm/s
COc1cccc(-c2cccc(Nc3nccc(NC4CCCCC4)n3)c2)c1	MDCKII-WT cells	10 µM, pH 7.4	Papp (A to B)	0.019 ± 0.016 ×10⁻⁶ cm/s
COc1cc2[nH]c(C)c(-c3c(F)cccc3F)c(=O)c2cc1Cl	PAMPA	pH 7.4	Papp	151 ×10⁻⁶ cm/s
COc1cccc(-c2cccc(Nc3nccc(NC(C)C)n3)c2)c1	MDCKII-WT cells	10 µM, pH 7.4	Papp (B to A)	0.543 ± 0.056 ×10⁻⁶ cm/s
CCOC(=O)[C@H](CCSC)NC(=O)c1ccc(C2CC2)c(Cc2ccc(F)cc2)n1	PAMPA	–	Papp	1.12 ×10⁻⁶ cm/s
C[C@H]1O[C@@H](O[C@H]2[C@@H](O)C[C@H](O[C@H]3[C@@H](O)C[C@H](O[C@H]4CC[C@@]5(C)[C@H](CC[C@@H]6[C@@H]5C[C@@H](O)[C@]5(C)[C@@H](C7=CC(=O)OC7)CC[C@]65O)C4)O[C@@H]3C)O[C@@H]2C)C[C@H](O)[C@@H]1O	EpiIntestinal microtissues	5 µM, 2 h, no inhibitor	Papp B to A	14.1 ± 1.6 ×10⁻⁶ cm/s
CC(C)Nc1ccnc(Nc2cccc(-c3ccncc3)c2)n1	MDCKII-WT cells	10 µM, pH 7.4	Papp (A to B)	68.6 ± 32.2 ×10⁻⁶ cm/s
COc1cc2[nH]c(C)c(-c3cc(C(F)(F)F)cc(C(F)(F)F)c3)c(=O)c2cc1Cl	PAMPA	pH 7.4	Papp	< 5 ×10⁻⁶ cm/s
CC(C)Nc1ccnc(Nc2cccc(C(C)(C)C)c2)n1	MDCKII-WT cells	10 µM, pH 7.4	Papp (A to B)	1.59 ± 0.66 ×10⁻⁶ cm/s
COc1cc2[nH]c(C)c(-c3ccc(F)cc3)c(=O)c2cc1Cl	PAMPA	pH 7.4	Papp	65 ×10⁻⁶ cm/s
CC(C)c1nc(N(C)S(C)(=O)=O)nc(-c2ccc(F)cc2)c1/C=C/[C@@H](O)C[C@@H](O)CC(=O)O	EpiIntestinal microtissues	5 µM, 2 h, no inhibitor	Papp B to A	21.2 ± 1.7 ×10⁻⁶ cm/s
COc1cc2[nH]c(C)c(-c3cccc(CO)c3)c(=O)c2cc1Cl	PAMPA	pH 7.4	Papp	9 ×10⁻⁶ cm/s
C[C@@H]1O[C@@H](O[C@H]2[C@H](Oc3cc(O)c4c(c3)O[C@H](c3ccc(O)cc3)CC4=O)O[C@H](CO)[C@@H](O)[C@@H]2O)[C@H](O)[C@H](O)[C@H]1O	PBS receiver	50 mg/mL, 15 min, pH 6.8	Papp	0.082 ± 0.9 ×10⁻⁶ cm/s
CCCCCCOC(=O)NC(=N)c1ccc(NCc2nc3cc(C(=O)N(CCC(=O)OCC)c4ccccn4)ccc3n2C)cc1	human EpiIntestinal microtissues	5 µM, 2 h	Papp (A to B)	0.038 ×10⁻⁶ cm/s
CC(C)Nc1ccnc(Nc2cccc(-c3ccccc3)c2)n1	MDCKII-WT cells	10 µM, pH 7.4	Papp (A to B)	0.638 ± 0.125 ×10⁻⁶ cm/s
N=C(N)NCCCNC(=O)[C@@H]1CCCCN1C(=O)[C@@H](CC1CCCCC1)NCC(=O)O	EpiIntestinal microtissues	5 µM, 2 h, pH 6.5, basolateral pH 7.4	Papp apical to basolateral	0.81 ×10⁻⁶ cm/s
COC(=O)c1cccc(-c2cccc(Nc3nccc(NC4CCCCC4)n3)c2)c1	MDCKII-WT cells	10 µM, pH 7.4	Papp (A to B)	0.017 ± 0.005 ×10⁻⁶ cm/s
COc1cc2[nH]c(C)c(-c3ccc(F)cc3F)c(=O)c2cc1Cl	PAMPA	pH 7.4	Papp	315 ×10⁻⁶ cm/s
CNS(=O)(=O)Cc1ccc2[nH]cc(CCN(C)C)c2c1	EpiIntestinal microtissues	5 µM, 2 h, pH 6.5, basolateral pH 7.4	Papp apical to basolateral	1.87 ×10⁻⁶ cm/s

For quick reference, copied from above:
Compound	system	setting	measurement	result
CCOC(=O)[C@H](CCc1ccccc1)N[C@@H](C)C(=O)N1CCC[C@H]1C(=O)O	EpiIntestinal microtissues	5 µM, 2 h, pH 6.5, basolateral pH 7.4	Papp apical to basolateral	0.86 ×10⁻⁶ cm/s
